Measured values from different studies.
Every numbered part comes from another study and shows a few of its results, in no order. Positions count from the first letter of the parent shown.

Sample 1 — target: CCNA2, cyclin fold, Cln2 fusion (human); technique: yeast growth competition, sequencing; sample: yeast; notes: strong parent motif; baseline: not given; direction: higher = stronger binding; starting sequence: viral docking peptide; YKVKRRLVFGADD
| Variant | normalised enrichment score |
| --- | --- |
| F9T | 0.888 |
| G10R | 5.9 |
| A11E | 6.36 |
| L7G | 0.367 |
| D12V | 6.62 |
| F9Y | 6.54 |
| K2M | 6.31 |
| R6G | 3.52 |

Sample 2 — effect on: binding; technique: phage display NGS; form: peptide; tested at: concentration not given; baseline: input library
Target: UDP-N-acetylglucosamine--peptide N-acetylglucosaminyltransferase 110 kDa subunit (OGT, Homo sapiens, UniProt O15294)
Sequence of UniProt O15294 (whole entry, looked up): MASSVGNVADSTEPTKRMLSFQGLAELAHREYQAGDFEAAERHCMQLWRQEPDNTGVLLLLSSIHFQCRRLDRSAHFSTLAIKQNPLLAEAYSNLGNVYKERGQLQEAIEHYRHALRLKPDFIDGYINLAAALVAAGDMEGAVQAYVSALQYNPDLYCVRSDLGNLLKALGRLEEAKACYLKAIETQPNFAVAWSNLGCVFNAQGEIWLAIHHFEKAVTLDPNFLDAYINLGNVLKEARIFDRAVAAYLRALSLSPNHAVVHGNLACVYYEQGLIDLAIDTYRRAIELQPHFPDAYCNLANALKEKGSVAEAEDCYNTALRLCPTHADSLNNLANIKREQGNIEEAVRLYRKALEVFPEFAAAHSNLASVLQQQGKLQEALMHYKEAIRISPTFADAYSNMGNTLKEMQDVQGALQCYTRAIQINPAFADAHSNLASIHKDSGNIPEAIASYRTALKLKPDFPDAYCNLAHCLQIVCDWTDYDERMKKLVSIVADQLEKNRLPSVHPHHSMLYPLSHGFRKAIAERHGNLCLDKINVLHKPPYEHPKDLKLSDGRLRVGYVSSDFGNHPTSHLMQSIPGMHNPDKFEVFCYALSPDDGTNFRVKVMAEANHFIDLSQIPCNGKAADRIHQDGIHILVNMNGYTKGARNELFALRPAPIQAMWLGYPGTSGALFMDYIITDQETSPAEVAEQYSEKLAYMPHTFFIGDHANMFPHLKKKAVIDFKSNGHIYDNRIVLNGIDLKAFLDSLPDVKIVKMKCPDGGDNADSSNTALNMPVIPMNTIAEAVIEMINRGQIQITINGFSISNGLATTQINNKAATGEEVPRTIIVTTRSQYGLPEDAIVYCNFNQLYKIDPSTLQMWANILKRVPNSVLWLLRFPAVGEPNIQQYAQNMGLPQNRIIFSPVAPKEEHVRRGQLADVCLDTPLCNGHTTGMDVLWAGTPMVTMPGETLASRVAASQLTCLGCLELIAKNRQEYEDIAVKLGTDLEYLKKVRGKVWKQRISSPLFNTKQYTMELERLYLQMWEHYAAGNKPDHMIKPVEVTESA
| Molecule | enrichment fold change |
| --- | --- |
| TYHFPHTHNHVQQHH | 14.9 |
| YYLPAYQIAPKYVQD | 7.4 |
| YDHQRVAMLHNIHRV | 3.2 |
| LPIPKFLPIYQLKLE | 1.64 |
| HIQHYHHDIQYTRDL | 6.56 |
| QSMGFSYPPAYLIKY | 1.72 |
| YFTTPMYQIYYERA | 13.5 |
| GAYSPIYQIFYSRIT | 58.6 |

Single results of other studies
CRK2: Cyclin-dependent kinase 2 homolog (CRK2, Plasmodium falciparum, UniProt P61075)
Sequence of UniProt P61075 (whole entry, looked up): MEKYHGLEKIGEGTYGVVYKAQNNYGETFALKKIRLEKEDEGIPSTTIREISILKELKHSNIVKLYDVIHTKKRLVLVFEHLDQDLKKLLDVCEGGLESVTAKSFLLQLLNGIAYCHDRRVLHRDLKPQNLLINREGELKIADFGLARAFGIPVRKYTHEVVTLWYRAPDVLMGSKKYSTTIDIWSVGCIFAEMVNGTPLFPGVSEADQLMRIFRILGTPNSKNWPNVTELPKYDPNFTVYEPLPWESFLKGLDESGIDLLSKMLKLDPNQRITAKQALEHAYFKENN
| Structure (SMILES) | target or system | effect on | technique | tested at | time | endpoint | value |
| --- | --- | --- | --- | --- | --- | --- | --- |
| COc1ccc2cc(OCC3(C(=O)O)CN(C(=O)c4ccc(F)cc4)C3)ccc2c1 | CRK2 | cell-free assay | competition with immobilised ligand | 1 µM |  | remaining binding | 97% |
| CC(C)NCC(O)c1ccccc1Cl (stereo not shown) | HaCaT |  |  | 100 µM | 36 h | viability | 76.5% |
| CC(C)CC(=O)N1CCc2nc(-c3ccc(Br)cc3)nc(N(C)Cc3ccccc3)c2C1 | CRK2 | cell-free assay | competition with immobilised ligand | 0.1 µM |  | remaining binding | 100% |

Some of these lines once more (sample 2):
| Molecule | enrichment fold change |
| --- | --- |
| YFTTPMYQIYYERA | 13.5 |
| GAYSPIYQIFYSRIT | 58.6 |
